Measured values collected from several papers.
Every numbered part comes from another study and shows a few of its results, in no order. Several values in a cell are separate wells, animals, samples, runs or records.
UniProt Q13464, sequence (whole entry, looked up): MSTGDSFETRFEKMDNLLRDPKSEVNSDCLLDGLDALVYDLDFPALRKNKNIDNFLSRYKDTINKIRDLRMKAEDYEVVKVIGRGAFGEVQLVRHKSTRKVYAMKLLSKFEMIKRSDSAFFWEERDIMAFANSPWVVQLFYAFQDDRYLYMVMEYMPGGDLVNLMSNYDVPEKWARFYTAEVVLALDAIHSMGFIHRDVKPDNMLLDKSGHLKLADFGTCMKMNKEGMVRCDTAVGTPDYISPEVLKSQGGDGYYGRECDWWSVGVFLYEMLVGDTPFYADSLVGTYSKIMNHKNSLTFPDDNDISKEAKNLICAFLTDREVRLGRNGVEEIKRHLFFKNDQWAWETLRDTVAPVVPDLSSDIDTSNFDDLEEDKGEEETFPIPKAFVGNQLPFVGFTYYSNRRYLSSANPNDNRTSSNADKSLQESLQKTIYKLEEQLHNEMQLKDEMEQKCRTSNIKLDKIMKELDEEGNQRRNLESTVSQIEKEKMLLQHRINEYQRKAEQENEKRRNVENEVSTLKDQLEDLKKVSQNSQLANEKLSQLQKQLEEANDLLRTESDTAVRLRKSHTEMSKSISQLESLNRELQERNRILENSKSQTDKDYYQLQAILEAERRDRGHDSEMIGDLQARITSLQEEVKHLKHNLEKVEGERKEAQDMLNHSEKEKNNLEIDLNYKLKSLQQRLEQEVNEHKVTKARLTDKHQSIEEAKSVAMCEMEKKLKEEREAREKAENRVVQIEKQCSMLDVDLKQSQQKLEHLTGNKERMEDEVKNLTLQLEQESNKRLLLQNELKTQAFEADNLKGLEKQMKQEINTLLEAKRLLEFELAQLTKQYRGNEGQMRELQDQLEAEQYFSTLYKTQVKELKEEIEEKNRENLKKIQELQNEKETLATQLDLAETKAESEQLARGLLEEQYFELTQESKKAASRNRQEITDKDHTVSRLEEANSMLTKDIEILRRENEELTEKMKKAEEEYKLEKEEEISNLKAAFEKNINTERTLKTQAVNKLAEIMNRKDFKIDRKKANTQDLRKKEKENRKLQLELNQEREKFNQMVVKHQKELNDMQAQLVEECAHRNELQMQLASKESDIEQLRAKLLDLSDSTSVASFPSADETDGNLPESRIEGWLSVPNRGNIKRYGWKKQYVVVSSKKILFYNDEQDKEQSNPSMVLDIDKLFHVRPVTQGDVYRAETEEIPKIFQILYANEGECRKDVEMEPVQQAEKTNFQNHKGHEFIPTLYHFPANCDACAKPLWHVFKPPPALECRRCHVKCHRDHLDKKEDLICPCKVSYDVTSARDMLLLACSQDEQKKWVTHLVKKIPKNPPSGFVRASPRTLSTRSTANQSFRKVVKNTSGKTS
UniProt P22607, sequence (whole entry, looked up): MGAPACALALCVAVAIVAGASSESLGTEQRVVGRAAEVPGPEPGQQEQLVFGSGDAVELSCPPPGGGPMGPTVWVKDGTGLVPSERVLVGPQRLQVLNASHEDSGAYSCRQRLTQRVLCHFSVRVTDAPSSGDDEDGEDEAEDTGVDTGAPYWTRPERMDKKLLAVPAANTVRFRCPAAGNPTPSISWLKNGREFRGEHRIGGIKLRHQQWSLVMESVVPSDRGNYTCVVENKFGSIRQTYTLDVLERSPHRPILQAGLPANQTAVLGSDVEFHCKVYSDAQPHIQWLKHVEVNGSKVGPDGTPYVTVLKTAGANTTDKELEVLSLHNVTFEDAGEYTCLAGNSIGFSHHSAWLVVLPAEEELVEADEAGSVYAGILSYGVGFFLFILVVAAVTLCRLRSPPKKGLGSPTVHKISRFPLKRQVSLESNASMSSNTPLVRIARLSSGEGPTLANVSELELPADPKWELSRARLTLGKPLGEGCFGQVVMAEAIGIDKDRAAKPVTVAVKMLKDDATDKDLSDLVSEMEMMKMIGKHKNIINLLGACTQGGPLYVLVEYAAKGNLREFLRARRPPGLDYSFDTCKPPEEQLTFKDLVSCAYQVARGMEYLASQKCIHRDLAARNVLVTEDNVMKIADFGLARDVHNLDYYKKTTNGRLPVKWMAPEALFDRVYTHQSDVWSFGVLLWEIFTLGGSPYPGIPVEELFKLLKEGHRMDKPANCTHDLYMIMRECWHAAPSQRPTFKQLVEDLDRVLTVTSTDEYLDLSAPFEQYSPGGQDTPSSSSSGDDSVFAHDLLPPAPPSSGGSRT
UniProt P11362, sequence (whole entry, looked up): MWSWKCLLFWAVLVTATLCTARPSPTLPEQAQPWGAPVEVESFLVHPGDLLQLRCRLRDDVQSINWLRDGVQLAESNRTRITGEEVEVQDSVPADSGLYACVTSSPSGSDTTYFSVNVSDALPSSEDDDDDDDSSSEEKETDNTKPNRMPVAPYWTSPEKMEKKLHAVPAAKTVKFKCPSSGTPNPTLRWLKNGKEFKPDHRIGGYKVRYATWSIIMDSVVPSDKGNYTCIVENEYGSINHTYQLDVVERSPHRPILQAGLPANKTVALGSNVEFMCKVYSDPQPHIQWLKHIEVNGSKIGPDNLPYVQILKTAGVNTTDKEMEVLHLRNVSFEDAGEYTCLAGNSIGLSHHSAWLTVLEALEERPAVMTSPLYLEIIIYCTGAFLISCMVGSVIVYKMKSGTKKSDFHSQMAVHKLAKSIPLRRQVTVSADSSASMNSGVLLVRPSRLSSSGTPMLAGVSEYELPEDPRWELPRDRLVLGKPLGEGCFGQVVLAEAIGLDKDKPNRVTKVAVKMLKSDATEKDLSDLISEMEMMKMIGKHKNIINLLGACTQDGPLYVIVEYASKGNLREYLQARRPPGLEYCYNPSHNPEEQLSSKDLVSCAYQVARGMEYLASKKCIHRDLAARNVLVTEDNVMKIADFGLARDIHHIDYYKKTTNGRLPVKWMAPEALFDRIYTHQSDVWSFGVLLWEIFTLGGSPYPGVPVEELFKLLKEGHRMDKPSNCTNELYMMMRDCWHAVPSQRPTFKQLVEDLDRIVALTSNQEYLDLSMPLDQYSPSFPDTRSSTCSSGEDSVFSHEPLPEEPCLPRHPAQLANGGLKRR
UniProt O75914, sequence (whole entry, looked up): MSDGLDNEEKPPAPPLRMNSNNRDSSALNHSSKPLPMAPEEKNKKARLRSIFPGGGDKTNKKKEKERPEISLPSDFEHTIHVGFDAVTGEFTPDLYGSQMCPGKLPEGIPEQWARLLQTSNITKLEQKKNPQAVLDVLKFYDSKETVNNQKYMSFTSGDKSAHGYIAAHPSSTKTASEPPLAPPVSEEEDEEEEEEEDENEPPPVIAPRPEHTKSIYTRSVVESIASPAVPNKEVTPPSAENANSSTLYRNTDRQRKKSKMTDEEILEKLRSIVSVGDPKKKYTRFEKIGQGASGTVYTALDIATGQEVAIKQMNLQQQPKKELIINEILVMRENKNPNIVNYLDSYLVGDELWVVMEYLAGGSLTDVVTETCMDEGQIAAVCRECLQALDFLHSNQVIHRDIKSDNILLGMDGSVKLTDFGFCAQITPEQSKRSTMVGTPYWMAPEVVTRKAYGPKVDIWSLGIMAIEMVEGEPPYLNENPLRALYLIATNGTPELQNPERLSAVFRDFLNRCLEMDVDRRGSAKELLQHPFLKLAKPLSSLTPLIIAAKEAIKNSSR
UniProt Q13043, sequence (whole entry, looked up): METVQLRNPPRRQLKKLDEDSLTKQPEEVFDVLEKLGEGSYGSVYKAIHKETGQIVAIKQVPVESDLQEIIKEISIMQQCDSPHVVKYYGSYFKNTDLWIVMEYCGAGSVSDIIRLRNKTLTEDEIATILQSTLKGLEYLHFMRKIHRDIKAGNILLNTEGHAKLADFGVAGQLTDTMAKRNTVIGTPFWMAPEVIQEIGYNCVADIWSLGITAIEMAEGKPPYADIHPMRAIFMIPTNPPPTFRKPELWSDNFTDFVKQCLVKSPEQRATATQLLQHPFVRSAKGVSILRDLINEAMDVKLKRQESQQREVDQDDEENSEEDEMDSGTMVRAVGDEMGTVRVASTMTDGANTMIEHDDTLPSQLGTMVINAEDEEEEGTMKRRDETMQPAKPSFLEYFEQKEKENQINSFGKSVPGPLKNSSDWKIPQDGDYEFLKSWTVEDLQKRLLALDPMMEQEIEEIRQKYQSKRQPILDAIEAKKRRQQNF
UniProt Q86UX6, sequence (whole entry, looked up): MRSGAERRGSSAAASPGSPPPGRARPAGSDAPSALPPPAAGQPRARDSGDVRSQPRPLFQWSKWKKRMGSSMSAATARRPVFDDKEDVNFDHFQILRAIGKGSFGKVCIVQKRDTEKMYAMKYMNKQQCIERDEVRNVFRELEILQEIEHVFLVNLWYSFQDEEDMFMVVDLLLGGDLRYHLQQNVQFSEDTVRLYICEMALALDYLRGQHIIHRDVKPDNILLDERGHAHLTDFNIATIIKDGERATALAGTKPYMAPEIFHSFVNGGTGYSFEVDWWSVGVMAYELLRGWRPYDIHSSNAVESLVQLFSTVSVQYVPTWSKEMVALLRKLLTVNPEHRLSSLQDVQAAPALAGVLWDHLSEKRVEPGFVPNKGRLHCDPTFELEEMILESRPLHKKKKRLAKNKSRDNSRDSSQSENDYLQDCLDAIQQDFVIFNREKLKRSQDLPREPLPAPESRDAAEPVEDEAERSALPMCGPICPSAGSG

Block 1
Target: Calcium/calmodulin-dependent protein kinase type II subunit alpha (CAMK2A, Homo sapiens, UniProt Q9UQM7)
UniProt Q9UQM7, sequence (whole entry, looked up): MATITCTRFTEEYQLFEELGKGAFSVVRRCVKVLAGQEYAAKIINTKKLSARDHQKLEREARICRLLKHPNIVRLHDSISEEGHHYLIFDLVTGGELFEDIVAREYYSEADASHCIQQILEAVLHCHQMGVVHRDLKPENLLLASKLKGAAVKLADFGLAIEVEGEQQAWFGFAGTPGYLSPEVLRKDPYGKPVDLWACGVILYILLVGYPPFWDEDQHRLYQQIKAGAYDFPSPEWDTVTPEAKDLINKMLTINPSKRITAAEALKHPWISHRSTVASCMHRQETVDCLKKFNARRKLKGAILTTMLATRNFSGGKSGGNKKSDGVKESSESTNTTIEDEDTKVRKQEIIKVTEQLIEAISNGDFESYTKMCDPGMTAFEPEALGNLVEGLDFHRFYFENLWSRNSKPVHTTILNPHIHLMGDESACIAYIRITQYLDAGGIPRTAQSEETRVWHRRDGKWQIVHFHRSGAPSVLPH
Effect on: enzyme activity
Action: inhibitor
Tested at: 10 µM
Endpoint: inhibition
CCCC(=O)OC[C@@H](OC(=O)CCC)[C@@H](OC(=O)CCC)[C@H](Cn1c2nc(=O)[nH]c(=O)c-2nc2cc(C)c(C)cc21)OC(=O)CCC: -11%
CC(=O)CCC(=O)O: -9%
C[C@@H]1O[C@H]2O[C@H]3[C@@H](OC[C@H](O)[C@@H]3O)OC(=O)[C@]34CCC(C)(C)C[C@H]3C3=CC[C@@H]5[C@@]6(C)C[C@H](O)[C@H](O[C@@H]7O[C@H](CO)[C@@H](O)[C@H](O)[C@H]7O[C@@H]7OC[C@H](OC(=O)C[C@](C)(O)CC(=O)O[C@@H]1[C@@H](O[C@@H]1OC[C@@H](O)[C@H](O)[C@H]1O)[C@H]2O)[C@H](O)[C@H]7O)[C@@](C)(CO)[C@@H]6CC[C@@]5(C)[C@]3(C)C[C@H]4O: 6%
CC1(C)CC[C@]2(C(=O)O)[C@H](O)C[C@]3(C)C(=CC[C@@H]4[C@@]5(C)CC[C@H](O)C(C)(C)[C@@H]5CC[C@]43C)[C@@H]2C1: -12%
COc1ccc(C(=O)N2CCN(c3ccc4c(c3)CCC(=O)N4)CC2)cc1OC: -1%

Block 2
Host: mouse
Matrix: microsomes or S9
Tested at: 2 µM
Time: 0.5 h
Endpoint: remaining compound
CCn1nc(C)c(C2CC(=O)Nc3nc(N4CCCCC4)nc(O)c32)c1C (stereo not shown): > 99.9%
CC(C)COc1cc(=O)n2c(c1C(=O)NCC1CC1)CCCCC2: 42.8%
COc1cc(Br)c(S(=O)(=O)NC2CCN(S(=O)(=O)CCN3CCCCC3)CC2)cc1OC: 0.059%
Cc1nc(-c2ccc(NC(=O)c3cscn3)cc2Cl)n[nH]1: 50.3%
Cc1nc(S(=O)(=O)NCc2c3c(nn2C)CCC3)cn1C: 52.2%
Cn1cc(S(=O)(=O)N2CCc3sccc3C2c2cccs2)c(=O)n(C)c1=O (stereo not shown): 3.47%

Block 3
Cell line: mouse MPNST tumor cells
Method: high-content nuclear imaging
Item: cell number
Tested at: 10 µM
Time: 12 h
Notes: mean of 2 replicates
Baseline: plate mean
Direction: higher = more cells
Endpoint: nuclei count
CC(NC(=O)Cc1cc(F)cc(F)c1)C(=O)NC(C(=O)OC(C)(C)C)c1ccccc1 (stereo not shown): 1.15 z-score
O=C(CCCCCCC(=O)Nc1ccccc1)NO: 0.153 z-score and -0.711 z-score and 0.814 z-score
O=C(/C=C/c1ccccc1)NC(NC(=S)Nc1cccc2cccnc12)C(Cl)(Cl)Cl (stereo not shown): 0.746 z-score
CC(C)(O)C(=O)N1CCN(c2ccc(C(F)(F)F)c(C3=C(c4c[nH]c5ccccc45)C(=O)NC3=O)c2)CC1: -1.06 z-score
Cc1cc(=O)n(-c2ccccc2)n1C: 2.72 z-score

Block 4
SMILES: O=C(Nc1cnn(-c2csc(C(=O)NC3COC3)c2)c1)Nc1ccccc1Cl
Effect on: enzyme activity
Tested at: 5 µM
Baseline: untreated control
Endpoint: remaining activity
SRPK3 (Homo sapiens, UniProt Q9UPE1): 90.9%
PAK5 (Homo sapiens, UniProt Q9P286): 90.7%
YES1 (Homo sapiens, UniProt P07947): 91.5%
STK4 (Homo sapiens, UniProt Q13043): 94.5%
ROCK1 (Homo sapiens, UniProt Q13464): 109%

Block 5
Structure (SMILES): CNC(=O)c1ccc(Nc2ncc(C(F)(F)F)c(NCc3nccnc3N(C)S(C)(=O)=O)n2)cc1
Effect on: cell-free assay
Method: competition with immobilised ligand
Tested at: 0.1 µM
Endpoint: remaining binding
FGFR1 (Homo sapiens, UniProt P11362): 89%
MAST1 (Homo sapiens, UniProt Q9Y2H9): 100%
GRK4 (Homo sapiens, UniProt P32298): 98%
STK32C (Homo sapiens, UniProt Q86UX6): 100%
PIK3CB (Homo sapiens, UniProt P42338): 45%
PKMYT1 (Homo sapiens, UniProt Q99640): 94%
CSF1R (Homo sapiens, UniProt P07333): 100%
PDGFRA (Homo sapiens, UniProt P16234): 77%
Cyclin-dependent kinase 4, with cyclin D3 (CDK4, Homo sapiens, UniProt P11802): 100%
ABL2 (Homo sapiens, UniProt P42684): 93%
CDKL3 (Homo sapiens, UniProt Q8IVW4): 92%
MAPK11 (Homo sapiens, UniProt Q15759): 76%
TESK1 (Homo sapiens, UniProt Q15569): 96%
FGFR3 (Homo sapiens, UniProt P22607): 78%
MAPK3 (Homo sapiens, UniProt P27361): 86%
PAK3 (Homo sapiens, UniProt O75914): 100%
PIKFYVE (Homo sapiens, UniProt Q9Y2I7): 100%
PRKD2 (Homo sapiens, UniProt Q9BZL6): 100%
Tyrosine-protein kinase ABL1, phosphorylated (ABL1, Homo sapiens, UniProt P00519): 100%

A few entries again (block 5):
STK32C (Homo sapiens, UniProt Q86UX6): 100%
PIK3CB (Homo sapiens, UniProt P42338): 45%
PKMYT1 (Homo sapiens, UniProt Q99640): 94%
CSF1R (Homo sapiens, UniProt P07333): 100%
